Earlier results that unrelated publications cite.
Lines come from different studies, so protocols differ.
CDK2: Cyclin-dependent kinase 2 (CDK2, Homo sapiens, UniProt P24941)
PTGS2: Prostaglandin G/H synthase 2 (PTGS2, Homo sapiens, UniProt P35354)
UniProt P35354, sequence (whole entry, looked up): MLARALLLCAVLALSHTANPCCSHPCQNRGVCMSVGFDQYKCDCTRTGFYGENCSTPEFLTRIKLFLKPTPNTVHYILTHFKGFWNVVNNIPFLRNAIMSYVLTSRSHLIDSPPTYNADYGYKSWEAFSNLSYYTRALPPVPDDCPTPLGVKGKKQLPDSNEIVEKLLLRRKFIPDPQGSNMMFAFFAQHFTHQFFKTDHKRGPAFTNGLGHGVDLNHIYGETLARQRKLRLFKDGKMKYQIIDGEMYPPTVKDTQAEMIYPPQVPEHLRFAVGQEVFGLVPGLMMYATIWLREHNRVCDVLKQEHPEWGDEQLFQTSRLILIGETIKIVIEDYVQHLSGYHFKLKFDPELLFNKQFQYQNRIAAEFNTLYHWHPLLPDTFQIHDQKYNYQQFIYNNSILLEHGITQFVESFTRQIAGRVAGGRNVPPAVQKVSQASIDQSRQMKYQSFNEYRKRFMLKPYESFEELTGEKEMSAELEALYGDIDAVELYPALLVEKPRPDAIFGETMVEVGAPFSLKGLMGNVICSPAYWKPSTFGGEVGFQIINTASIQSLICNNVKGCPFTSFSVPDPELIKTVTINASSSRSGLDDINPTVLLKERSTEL
EPAS1 PAS-B domain: Endothelial PAS domain-containing protein 1, PAS-B domain (EPAS1, Homo sapiens, UniProt Q99814)
UniProt Q99814, sequence (whole entry, looked up): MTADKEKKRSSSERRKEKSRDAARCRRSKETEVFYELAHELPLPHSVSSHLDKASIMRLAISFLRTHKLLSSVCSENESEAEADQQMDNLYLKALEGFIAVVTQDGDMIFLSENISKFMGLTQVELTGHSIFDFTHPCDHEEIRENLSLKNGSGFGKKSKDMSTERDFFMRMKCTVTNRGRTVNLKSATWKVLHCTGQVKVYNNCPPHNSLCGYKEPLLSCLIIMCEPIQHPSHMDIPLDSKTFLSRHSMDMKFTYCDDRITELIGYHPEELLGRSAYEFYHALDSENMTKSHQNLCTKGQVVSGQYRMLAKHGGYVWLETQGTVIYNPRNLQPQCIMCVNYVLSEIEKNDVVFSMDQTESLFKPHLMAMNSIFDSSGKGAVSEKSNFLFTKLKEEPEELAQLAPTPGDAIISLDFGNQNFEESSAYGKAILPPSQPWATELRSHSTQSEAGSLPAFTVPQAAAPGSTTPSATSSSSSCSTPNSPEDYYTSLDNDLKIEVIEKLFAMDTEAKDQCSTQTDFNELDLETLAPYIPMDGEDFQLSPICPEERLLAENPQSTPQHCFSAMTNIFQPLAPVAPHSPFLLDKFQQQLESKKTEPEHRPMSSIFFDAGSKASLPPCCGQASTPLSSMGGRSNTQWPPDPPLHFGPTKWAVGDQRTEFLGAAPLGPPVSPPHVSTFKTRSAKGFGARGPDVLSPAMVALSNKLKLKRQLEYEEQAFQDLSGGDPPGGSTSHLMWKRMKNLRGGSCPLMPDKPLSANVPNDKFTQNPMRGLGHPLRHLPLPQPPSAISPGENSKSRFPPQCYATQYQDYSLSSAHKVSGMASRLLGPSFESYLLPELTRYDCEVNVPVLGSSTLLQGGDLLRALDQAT
UniProt Q9Y233, sequence (whole entry, looked up): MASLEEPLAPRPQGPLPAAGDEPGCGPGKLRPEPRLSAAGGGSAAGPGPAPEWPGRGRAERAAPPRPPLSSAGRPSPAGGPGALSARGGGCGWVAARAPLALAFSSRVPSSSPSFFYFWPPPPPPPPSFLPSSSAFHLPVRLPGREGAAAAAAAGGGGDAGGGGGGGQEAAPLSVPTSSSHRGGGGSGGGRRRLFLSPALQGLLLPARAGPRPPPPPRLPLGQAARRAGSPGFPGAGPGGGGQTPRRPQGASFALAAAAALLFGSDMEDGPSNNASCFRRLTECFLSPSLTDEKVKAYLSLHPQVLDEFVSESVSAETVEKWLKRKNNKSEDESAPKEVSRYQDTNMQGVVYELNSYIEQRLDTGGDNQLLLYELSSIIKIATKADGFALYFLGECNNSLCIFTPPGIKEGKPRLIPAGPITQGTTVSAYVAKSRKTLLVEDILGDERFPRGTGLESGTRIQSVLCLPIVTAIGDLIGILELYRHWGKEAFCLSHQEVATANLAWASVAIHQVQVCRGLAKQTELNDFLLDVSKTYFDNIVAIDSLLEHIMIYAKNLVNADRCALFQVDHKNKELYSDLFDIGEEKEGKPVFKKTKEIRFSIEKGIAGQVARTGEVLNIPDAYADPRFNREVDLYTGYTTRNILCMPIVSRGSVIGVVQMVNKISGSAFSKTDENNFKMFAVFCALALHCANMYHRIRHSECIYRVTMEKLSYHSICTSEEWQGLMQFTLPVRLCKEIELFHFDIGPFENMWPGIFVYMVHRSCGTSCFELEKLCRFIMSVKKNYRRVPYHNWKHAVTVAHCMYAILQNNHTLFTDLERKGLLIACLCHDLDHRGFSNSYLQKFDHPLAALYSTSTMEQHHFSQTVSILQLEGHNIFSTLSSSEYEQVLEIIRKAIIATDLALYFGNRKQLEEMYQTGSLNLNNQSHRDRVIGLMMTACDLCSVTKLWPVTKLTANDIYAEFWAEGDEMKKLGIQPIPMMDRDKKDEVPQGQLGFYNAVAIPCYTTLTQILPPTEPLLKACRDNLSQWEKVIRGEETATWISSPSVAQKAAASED
UniProt P28335, sequence (whole entry, looked up): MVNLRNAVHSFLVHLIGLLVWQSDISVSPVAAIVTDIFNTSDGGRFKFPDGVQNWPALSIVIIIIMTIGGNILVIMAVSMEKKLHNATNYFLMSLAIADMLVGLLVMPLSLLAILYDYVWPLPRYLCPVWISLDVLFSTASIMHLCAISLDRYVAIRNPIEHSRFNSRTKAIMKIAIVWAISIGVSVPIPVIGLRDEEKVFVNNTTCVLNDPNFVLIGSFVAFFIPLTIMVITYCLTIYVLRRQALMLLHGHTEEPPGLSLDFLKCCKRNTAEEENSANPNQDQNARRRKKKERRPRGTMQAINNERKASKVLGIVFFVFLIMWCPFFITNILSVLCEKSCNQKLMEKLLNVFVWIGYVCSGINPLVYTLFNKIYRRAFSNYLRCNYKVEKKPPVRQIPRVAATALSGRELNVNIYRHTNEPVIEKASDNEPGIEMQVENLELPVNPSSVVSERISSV
UniProt Q9UNU6, sequence (whole entry, looked up): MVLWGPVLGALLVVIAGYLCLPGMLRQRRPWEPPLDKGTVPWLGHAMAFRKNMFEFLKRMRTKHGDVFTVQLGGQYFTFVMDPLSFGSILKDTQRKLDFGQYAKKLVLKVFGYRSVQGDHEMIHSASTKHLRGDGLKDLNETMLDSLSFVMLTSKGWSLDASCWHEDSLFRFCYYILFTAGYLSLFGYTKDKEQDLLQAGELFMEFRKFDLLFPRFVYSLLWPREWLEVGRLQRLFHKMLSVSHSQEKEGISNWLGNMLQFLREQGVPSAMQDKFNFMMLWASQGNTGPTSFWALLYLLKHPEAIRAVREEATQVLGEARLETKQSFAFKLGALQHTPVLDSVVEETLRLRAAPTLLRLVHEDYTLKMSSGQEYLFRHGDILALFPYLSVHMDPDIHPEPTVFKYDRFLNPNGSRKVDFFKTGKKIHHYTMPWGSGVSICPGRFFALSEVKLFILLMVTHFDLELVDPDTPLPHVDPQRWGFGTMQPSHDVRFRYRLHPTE

SMILES = CNc1ccc(-c2nc3ccccc3s2)cc1; target = amyloid-beta aggregates; test = binding, fluorescence saturation binding; measurement = Kd; result = 5230 nM
SMILES = Clc1ccc(C(Cn2ccnc2)OCc2ccsc2Cl)c(Cl)c1 (centres unmarked); target = 7-alpha-hydroxycholest-4-en-3-one 12-alpha-hydroxylase (Homo sapiens, UniProt Q9UNU6); test = binding; measurement = Kd; result = ~200 nM
SMILES = CCN(CC)CCOc1ccc2cc1CN(C)C/C=C/CCOc1cccc(c1)-c1ccnc(n1)N2; target = CDK2; measurement = IC50; result = 300 nM
SMILES = CCCCCCCCCCCCCCCCCCOC(=O)c1cc(O)c(O)c(O)c1; target = PTGS2; test = inhibitor; measurement = IC50; result = 28200 nM
SMILES = CN1C/C=C/CCOc2cccc(c2)-c2ccnc(n2)Nc2cc(N)cc(c2)C1; target = CDK2; measurement = IC50; result = 7 nM
SMILES = O=[N+]([O-])c1cc(C(F)(F)F)ccc1NN1CCOCC1; target = EPAS1 PAS-B domain; test = binding, isothermal titration calorimetry; conditions = <0.1% DMSO; measurement = Kd; result = 1800 nM
SMILES = Cc1ccc2n1C(C)C(c1cc3n(c1C)C(C)C1OC4(C(C)O)C=Cc5ccc(C)n5C1C34)C=C2 (centres unmarked); target = PTGS2; test = inhibitor; measurement = IC50; result = 5310 nM
SMILES = O=C(c1ccc(Cl)cc1)N(Cc1ccccc1)C1CCCCC1; target = RAGE; test = binding; measurement = Kd; result = 15 nM
SMILES = CN1CCN(c2ccc(Nc3ncc4cc(C#N)c(=O)n(C5CCCC5)c4n3)cc2)CC1; target = CDK2; measurement = IC50; result = 159 nM
SMILES = CC(C)(Oc1ccc(C(=O)c2ccc(Cl)cc2)cc1)C(=O)O; target = PTGS2; test = inhibitor; measurement = IC50; result = 48 nM
SMILES = Cc1nccn1CCC(C(N)=O)(c1ccccc1)c1ccccc1; target = muscarinic M3 receptor; test = antagonist; measurement = Kb; result = 0.317 nM
SMILES = CCOc1ccc(CC(=O)N[C@@H](CCCNC(=N)N)C(=O)N[C@@H](CC(C)C)C(=O)N[C@@H](CC(N)=O)C(=O)N[C@@H](Cc2ccc(F)cc2)C(=O)O)cc1OCC; target = CDK2; measurement = IC50; result = 5200 nM
SMILES = CCc1ccccc1-c1ccc(C(=O)NC[C@@H](N)C(=O)O)o1; target = Glutamate receptor ionotropic, NMDA 1, with GluN2C (Grin1, Rattus norvegicus, UniProt P35439); conditions = together with: saturating glutamate; measurement = EC50; result = 63 nM
SMILES = COc1ccc2c(c1)c(CC(=O)O)c(C)n2C(=O)c1c(Cl)cc(Cl)cc1Cl; target = PTGS2; test = inhibitor; measurement = IC50; result = 500 nM
SMILES = COc1ccc(CNc2c(CO)cnc3c(C4CC4)cc(C#N)cc23)cc1Cl; target = cAMP and cAMP-inhibited cGMP 3',5'-cyclic phosphodiesterase 10A (PDE10A, Homo sapiens, UniProt Q9Y233); measurement = IC50; result = > 10000 nM
SMILES = O=C(O)Cc1cscc1Nc1c(Cl)cccc1Cl; target = PTGS2; test = inhibitor; measurement = IC50; result = 30 nM
SMILES = CN1C/C=C/COCc2cccc(c2)-c2ccnc(n2)Nc2cccc(c2)C1; target = CDK2; measurement = IC50; result = 660 nM
SMILES = O=[N+]([O-])c1cc(C(F)(F)F)ccc1NCc1ccco1; target = EPAS1 PAS-B domain; test = binding, isothermal titration calorimetry; conditions = <0.1% DMSO; measurement = Kd; result = 1500 nM
SMILES = Fc1ncccc1-c1ccc2c(n1)[nH]c1ccncc12; target = tau aggregates; test = binding, Scatchard analysis; system = human, Alzheimer's disease brain tissue; measurement = Kd; result = 3.7 nM
SMILES = CCc1cccc(CC)c1NC(=O)c1nn(C)c2c1CCc1cnc(Nc3ccc(C(N)=O)cc3OC)nc1-2; target = CDK2; measurement = IC50; result = 5570 nM
SMILES = CC(C)(C)c1cc(C=C2C(=O)C=CC2=O)cc(C(C)(C)C)c1O; target = PTGS2; test = inhibitor; measurement = IC50; result = 1160 nM
SMILES = CNC(=O)[C@@]12C[C@@H]1[C@@H](n1cnc3c(NCc4cccc(Cl)c4)nc(C#Cc4ccc(F)c(F)c4)nc31)[C@H](O)[C@@H]2O; target = 5-hydroxytryptamine receptor 2C (HTR2C, Homo sapiens, UniProt P28335); test = radioligand binding; measurement = Ki; result = 5800 nM
SMILES = O=C(CCCCCCC(=O)Nc1ccccc1)NO; target = HDAC complex; test = binding; conditions = ex vivo; measurement = Kd; result = 400 nM

For quick reference, copied from above:
SMILES = CC(C)(Oc1ccc(C(=O)c2ccc(Cl)cc2)cc1)C(=O)O; target = PTGS2; test = inhibitor; measurement = IC50; result = 48 nM
SMILES = CC(C)(C)c1cc(C=C2C(=O)C=CC2=O)cc(C(C)(C)C)c1O; target = PTGS2; test = inhibitor; measurement = IC50; result = 1160 nM
